Measurements collected from several papers.
Each numbered part is a random draw from the data of one study; scales do not carry over between parts. Changes are numbered by the printed parent chain.

Sample 1
Target: Protein C-ets-1 (ETS1, Homo sapiens, UniProt P14921, residues 1-441, full length assumed)
Method: protein-binding microarray
Molecule type: double-stranded DNA, one strand shown
Medium: in vitro
Concentration: not given
Notes: k-mer, scored over probes, only values ≥0.25
Reading: higher = stronger binding
Target sequence (chain): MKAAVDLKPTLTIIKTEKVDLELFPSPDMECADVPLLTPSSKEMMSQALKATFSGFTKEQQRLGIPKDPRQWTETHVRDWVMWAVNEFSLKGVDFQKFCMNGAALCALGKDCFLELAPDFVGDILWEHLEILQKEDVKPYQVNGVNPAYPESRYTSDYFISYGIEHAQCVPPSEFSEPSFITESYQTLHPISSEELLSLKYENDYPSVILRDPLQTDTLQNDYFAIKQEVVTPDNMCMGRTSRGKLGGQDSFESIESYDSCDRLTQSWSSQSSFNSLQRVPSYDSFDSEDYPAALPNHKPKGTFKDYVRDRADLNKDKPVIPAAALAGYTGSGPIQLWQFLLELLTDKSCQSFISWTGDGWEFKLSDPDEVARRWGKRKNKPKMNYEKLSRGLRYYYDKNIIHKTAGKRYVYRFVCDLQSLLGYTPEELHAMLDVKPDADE
Strand | E-score
CACCGGAG | 0.273
CGTTTCCC | 0.372
CCGGTAGC | 0.328
CATCCCGC | 0.3
CTCTTTCC | 0.311
GAGGGGAA | 0.318
CCCGCCGG | 0.271
GGATGGCA | 0.256
GGATATCA | 0.313
GGATAGCC | 0.276
ATCCGGCC | 0.462
CACCTTCC | 0.32
ATTTCCTC | 0.43
GGGAAATA | 0.355
CTTCCCAC | 0.304
AGGATGGA | 0.332
CCGGGAAA | 0.371
ATTCCGGG | 0.293
AAAGGAAA | 0.406
ATCCGATA | 0.294
ACCTCCCC | 0.268
CGTGCGGA | 0.335

Sample 2
Target: ABI1, truncated, D143A, DHFR fusion (Arabidopsis thaliana)
Method: DHFR PCA, deep sequencing
Medium: yeast
Notes: methotrexate growth selection, single substitutions
Together with: (+)-ABA 0.11 µM
Baseline: wild-type fitted maximum
Reading: higher = stronger binding
Starting sequence: PYL1, truncated, DHFR fusion (Arabidopsis thaliana); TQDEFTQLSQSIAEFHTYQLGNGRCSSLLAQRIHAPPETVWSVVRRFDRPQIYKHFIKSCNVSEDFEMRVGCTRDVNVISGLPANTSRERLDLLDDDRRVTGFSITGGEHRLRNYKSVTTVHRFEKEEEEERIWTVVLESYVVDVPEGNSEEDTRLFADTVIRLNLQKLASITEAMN; partner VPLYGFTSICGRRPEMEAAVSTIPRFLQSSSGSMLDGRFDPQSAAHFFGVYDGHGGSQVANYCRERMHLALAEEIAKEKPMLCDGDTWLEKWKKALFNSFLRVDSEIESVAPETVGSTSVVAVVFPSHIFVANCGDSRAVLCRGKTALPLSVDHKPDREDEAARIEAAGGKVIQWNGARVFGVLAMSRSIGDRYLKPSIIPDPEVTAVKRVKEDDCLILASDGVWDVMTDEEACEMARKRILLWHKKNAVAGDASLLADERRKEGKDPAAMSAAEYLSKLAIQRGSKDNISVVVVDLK
Change | relative binding score [%]
R45S | 1.87
L28Y | 1.5
E139H | 6.32
D159H | -4.35
G21V | 26.6
E14V | -0.492
S104L | -5.65
N149M | 51.9
E109C | 8.59
Y115G | -8.65
L164Y | 2.48
R69A | 28.5
Y115M | -3.24
T86L | 21.6
S42Q | 26.2
C60W | -11
F103T | -4.76
L138P | -1.78
L91I | 17.7
R132H | 38.2
S9H | 27.2
E147A | 18.7
R98Y | 0.718
S117H | -2.05

Sample 3
Target: JUNB, bZIP domain (human)
Method: DHFR protein complementation
Medium: yeast
Notes: single substitutions, most at no-binding floor
Baseline: wild-type JUN-FOS pair
Reading: higher = stronger binding
Starting sequence: JUN, bZIP domain (human); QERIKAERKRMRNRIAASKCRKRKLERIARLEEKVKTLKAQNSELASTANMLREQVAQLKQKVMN; partner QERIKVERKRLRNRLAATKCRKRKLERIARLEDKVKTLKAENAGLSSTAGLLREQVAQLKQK
Change | binding fitness
L45R | -1.43 natural log
A46E | -0.947 natural log
V56E | -1.42 natural log
E32I | -1.34 natural log
N42Y | -1.53 natural log
K39P | -1.53 natural log
Q41P | -1.36 natural log
E32N | -1.37 natural log
L45H | -1.47 natural log
S47K | -0.749 natural log
V35R | -1.38 natural log
E32W | -1.51 natural log
L31I | -1.24 natural log
T37I | -0.98 natural log
A29T | -1.24 natural log
M51P | -1.5 natural log
V35K | -1.27 natural log
Q41G | -1.5 natural log
Q41T | -1.33 natural log
K34P | -1.53 natural log
A49W | -1.41 natural log
E32K | -1.19 natural log
E54N | -1.36 natural log
K34Q | -0.755 natural log
T48A | -1.13 natural log

Sample 4
Target: CCNE1, cyclin fold, Cln2 fusion (human)
Method: yeast growth competition, sequencing
Medium: yeast
Notes: strong parent motif
Baseline: not given
Reading: higher = stronger binding
Starting sequence: ANKRD17 docking peptide (human); PSVRRQLFVTVVK
Change | normalised enrichment score
R5A | 1.82
V3A | 3.38
F8L | 0.595
R5A L7A | 0.452
Q6A | 1.81
R5K | 1.09
L7A | 1
K13A | 4.75
V11A | 4.97
P1A | 4.4

Sample 5
Target: Phosphate system positive regulatory protein PHO4, full length, GST-tagged (PHO4, Saccharomyces cerevisiae, UniProt P07270, residues 1-312)
Method: competition protein-binding microarray
Molecule type: double-stranded DNA, one strand shown
Medium: in vitro
Concentration: 2 µM
Notes: whole 60-bp probe, lowest competitor level
Together with: Cbf1 competitor, 0.05 µM
Reading: higher = stronger binding
Shared flanks, not repeated: … GTCTTGATTCGCTTGACGCTGCTG
Target sequence (chain): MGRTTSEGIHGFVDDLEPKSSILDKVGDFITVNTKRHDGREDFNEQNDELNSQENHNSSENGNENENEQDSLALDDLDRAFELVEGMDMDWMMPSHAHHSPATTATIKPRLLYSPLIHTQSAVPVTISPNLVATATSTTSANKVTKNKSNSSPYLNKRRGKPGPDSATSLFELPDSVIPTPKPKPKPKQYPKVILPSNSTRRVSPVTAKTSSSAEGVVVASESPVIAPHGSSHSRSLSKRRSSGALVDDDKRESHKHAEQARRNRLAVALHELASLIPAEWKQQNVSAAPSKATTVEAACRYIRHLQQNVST
Strand | fluorescence intensity
CATACCCAACCTTGCCGTGTGGGTGAAGATATTTGT | 6880 a.u.
CTTCTGTAAATTTGCCGCGTGGGTGGACGCGCCCCG | 9620 a.u.
ACCGTATATATACTACACGCACACACACCAACACAA | 9210 a.u.
TTCTTTAATAAGTTGGTCGTGGGTACCTGCTGTTGC | 7300 a.u.
CTAACGAAGGTTTGATCTGTGGGTGACAAGCCAAGT | 3470 a.u.
TATGCCCATCCCAAGATCATGCCCGGGAGAGCAAAT | 4370 a.u.
CATGTTTCGATGTTACACGTGGAACAAGAGTTAAGA | 18600 a.u.
AAAGCGGTAATTTGGTGGGTGGGTGCAGATATCTAT | 5310 a.u.
AAGCTAAAGCAGAGGAACGTGACGGACGCGCATTAA | 12900 a.u.
AGAATGCCACCAGACTTCATGACAGAAAAAGCTGCC | 3390 a.u.
TGGAAGGAAAAAACCTTCGTGGGTAGAGGGCTCATA | 4250 a.u.
CTATCCCTAGATTTCGTCGTGCCGAGACCCAAATAG | 5700 a.u.
TGCGCAACAACTTGGTCGGTGGGTGTATGTCTAGAA | 4400 a.u.
TTGTGGTGAAGCCGTTTTGTGATGGGTGTGGCGCGA | 4680 a.u.
AAGTCCTTTTCCCGTCACGTGGTCGTAGAACACTCT | 18400 a.u.
GATCTACTATCAGTTTTCGTGGCCGATGGGTTACAT | 4040 a.u.

Sample 6
Target: UBE2G2 UBC core domain (UniProt P60604)
Method: yeast two-hybrid
Medium: yeast
Notes: mostly zero background
Baseline: not given
Reading: higher = stronger interaction
B1: RC3H1 RING domain (UniProt Q5TC82); chain QAPQWTDFLSCPICTQTFDETIRKPISLGCGHTVCKMCLNKLHRKACPFDQTTINTDIELL
B2: TRIM24 RING domain (UniProt O15164); chain EAARLNLLDTCAVCHQNIQSRAPKLLPCLHSFCQRCLPAPQRYLMLPAPMLGSAETPPPVPAPGSPVSGSSPFATQVGVIRCPVCSQECAERHII
B3: TRIM13 RING domain (UniProt O60858); chain MELLEEDLTCPICCSLFDDPRVLPCSHNFCKKCLEGILEGSVRNSLWRPAPFKCPTCRKETSATGINS
B4: MKRN1 RING domain (UniProt Q9UHC7); chain FAVQRSKDMVCGICMEVVYEKANPSERRFGILSNCNHTYCLKCIRKWRSAKQFESKIIKSCPECRITSNFVIPSE
B5: TRAF5 RING domain (UniProt O00463); chain FVERLEERYKCAFCHSVLHNPHQTGCGHRFCQHCILSLRELNTVPICPVDKEVIKSQEVFK
B6: TRIM5 RING domain (UniProt Q9C035); chain ILVNVKEEVTCPICLELLTQPLSLDCGHSFCQACLTANHKKSMLDKGESSCPVCRISYQPENIRP
B7: DTX4 RING domain (UniProt Q9Y2E6); chain QKVRHPPDEDCTICMERLTAPSGYKGPQPTVKPDLVGKLSRCGHVYHIYCLVAMYNNGNKDGSLQCPTCKTIYGVKTGTQ
B8: NEURL1 RING domain (UniProt O76050); chain VTPGLGQWSDECTICYEHAVDTVIYTCGHMCLCYACGLRLKKALHACCPICRRPIKDIIKT
Construct (chain): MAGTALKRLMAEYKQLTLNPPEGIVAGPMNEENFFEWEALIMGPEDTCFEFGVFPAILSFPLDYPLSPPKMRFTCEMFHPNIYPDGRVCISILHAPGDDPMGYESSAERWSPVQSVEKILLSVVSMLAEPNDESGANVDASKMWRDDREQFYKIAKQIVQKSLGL
Sequence | lacZ reporter activity
B1 (RC3H1 RING domain) | 0
B2 (TRIM24 RING domain) | 0
QVDKAVFHMQSVKCLKCQEQKRAVLPCQHAALCELCAEGSECPICQPGRAHTLQS (UNK RING domain (UniProt Q9C0B0)) | 0
B3 (TRIM13 RING domain) | 0
B4 (MKRN1 RING domain) | 0
FQGDVDEDLICPICSGVLEEPVQAPHCEHAFCNACITQWFSQQQTCPVDRSVVTVAHLRP (RNF41 RING domain (UniProt Q9H4P4)) | 1050
B5 (TRAF5 RING domain) | 0
B6 (TRIM5 RING domain) | 0
B7 (DTX4 RING domain) | 0
B8 (NEURL1 RING domain) | 0
MPIRALCTICSDFFDHSRDVAAIHCGHTFHLQCLIQWFETAPSRTCPQCRIQVGKRTIIN (TRAIP RING domain (UniProt Q9BWF2)) | 0
ASLPTSEEDLCPICYAHPISAVFQPCGHKSCKACINQHLMNNKDCFFCKTTIVSVEDWE (RNF123 RING domain (UniProt Q5XPI4)) | 0

Sample 7
Target: Sal-like protein 4, full length isoform A (SALL4, Homo sapiens, UniProt Q9UJQ4, residues 1-1053)
UniProt Q9UJQ4, sequence (whole entry, looked up): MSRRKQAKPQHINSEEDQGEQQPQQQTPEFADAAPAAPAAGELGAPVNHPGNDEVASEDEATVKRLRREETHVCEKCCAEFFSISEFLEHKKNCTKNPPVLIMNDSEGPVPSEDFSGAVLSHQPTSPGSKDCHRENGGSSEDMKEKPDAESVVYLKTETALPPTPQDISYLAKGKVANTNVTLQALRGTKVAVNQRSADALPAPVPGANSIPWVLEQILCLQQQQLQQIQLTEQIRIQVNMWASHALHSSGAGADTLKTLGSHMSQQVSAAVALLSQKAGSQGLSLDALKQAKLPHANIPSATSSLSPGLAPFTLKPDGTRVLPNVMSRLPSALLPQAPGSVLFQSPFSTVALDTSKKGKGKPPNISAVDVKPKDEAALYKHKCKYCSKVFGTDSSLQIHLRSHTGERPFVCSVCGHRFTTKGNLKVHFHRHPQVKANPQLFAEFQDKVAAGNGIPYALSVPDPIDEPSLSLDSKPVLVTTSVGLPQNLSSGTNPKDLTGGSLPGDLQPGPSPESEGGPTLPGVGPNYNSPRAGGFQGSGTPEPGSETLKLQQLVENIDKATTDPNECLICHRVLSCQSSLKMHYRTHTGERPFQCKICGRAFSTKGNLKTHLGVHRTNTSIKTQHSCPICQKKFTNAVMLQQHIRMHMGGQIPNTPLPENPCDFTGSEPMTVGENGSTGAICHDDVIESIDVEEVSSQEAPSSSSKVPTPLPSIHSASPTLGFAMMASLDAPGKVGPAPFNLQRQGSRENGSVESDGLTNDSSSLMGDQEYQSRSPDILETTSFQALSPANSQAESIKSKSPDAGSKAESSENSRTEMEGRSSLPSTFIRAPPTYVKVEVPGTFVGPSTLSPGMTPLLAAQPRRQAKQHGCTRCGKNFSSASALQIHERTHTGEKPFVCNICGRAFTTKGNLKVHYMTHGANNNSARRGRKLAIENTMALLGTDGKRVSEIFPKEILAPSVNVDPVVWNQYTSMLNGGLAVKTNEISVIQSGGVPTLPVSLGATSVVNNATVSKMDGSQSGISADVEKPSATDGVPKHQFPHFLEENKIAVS
Method: universal PBM
Molecule type: double-stranded DNA, one strand shown
Medium: in vitro
Concentration: 600 nM
Notes: 8-mer, flanks averaged, mean of replicates
Reading: higher = stronger binding
Strand | E-score
GACGCTTA | -0.0682
TAAGCAAA | 0.226
CCGGAGAC | -0.23
ACCTTTGC | 0.0324
TACGCGCA | -0.0917
GCTATTAA | 0.209
CGATTTTA | 0.203
AGGAATTG | 0.157
GCAGCTGA | -0.116
CCTTAAGG | -0.117
ACCGATAA | 0.249
AGTTGCAC | -0.146
AGCATGAC | -0.152
TCTCAGAA | 0.136
ACCATAAT | 0.368
AGACGCGA | -0.0449
AGTCGCAC | -0.117
CCTTAGAA | -0.096
ACGCGCGT | -0.0859
GGCAGTTA | 0.0243
AAAGATTA | 0.3
ATGGCAGA | -0.0131
GGTGGTAA | 0.0878
CCTAGCAC | -0.16
GACTCCCC | -0.288

A few entries again (sample 2):
Change | relative binding score [%]
L28Y | 1.5
E139H | 6.32
D159H | -4.35
G21V | 26.6
E14V | -0.492
S104L | -5.65
N149M | 51.9
E109C | 8.59
Y115G | -8.65
L164Y | 2.48
R69A | 28.5
Y115M | -3.24
T86L | 21.6
S42Q | 26.2
C60W | -11
F103T | -4.76
L138P | -1.78
L91I | 17.7
R132H | 38.2
S9H | 27.2
E147A | 18.7
R98Y | 0.718
